Measured values from different studies.
Compare with care: the assays were run in different laboratories. ± gives the spread as reported.

SMILES | cell line | assay | setting | IC50
COc1ccc(C[C@H]2COC(=O)[C@@H]2Cc2ccc(OCC(=O)NCC(=O)Nc3ccccc3N)c(OC)c2)cc1OC | CCRF-CEM | cell growth or viability, CCK-8 | 48 h | > 5 µM
Cc1cc(O)c2c(c1)C(=O)c1cc(O)cc(O)c1C2=O | MOLT-3 | cell growth or viability, ATP luminescence | 24 h | 8 µM
O[C@H]1[C@H](O)C=CC(Br)[C@@H]1O (some centres unmarked) | LAPC4 | AR transcriptional activity, antagonist, PSA promoter luciferase | 24 h | 1 µM
COC(=O)c1c(-c2ccc(F)cc2)c2n(c1C(=O)OC)CCn1cccc1-2 | PANC-1 | cell growth or viability, MTT | 48 h | 75.3 µM
CC1(C)C2CCC(CN=C(N)CSS(=O)(=O)O)C1C2 (centres unmarked) | K562, inducible U2AF1 S34F | cell viability, trypan blue | 5 d | ~5 µM
CC(=O)OC[C@H]1O[C@@H]([S-])[C@H](OC(C)=O)[C@@H](OC(C)=O)[C@@H]1OC(C)=O.CCP(CC)CC.[Au+] | RC-124 kidney epithelial | cell proliferation, crystal violet staining | 96 h | 0.4 ± 0.3 µM
CC(=O)O[C@H]1C(=O)[C@@]2(C)[C@H]([C@H](OC(=O)c3ccccc3)[C@]3(O)C[C@H](OC(=O)[C@H](O)[C@@H](NC(=O)c4ccccc4)c4ccccc4)C(C)=C1C3(C)C)[C@]1(OC(C)=O)CO[C@@H]1C[C@@H]2O | HCT-8 | cell growth or viability, CCK-8 | 72 h | 4.6 µM
C[C@]12C=CC(=O)C=C1CC[C@@H]1[C@@H]2[C@@H](O)C[C@@]2(C)[C@H]1CC[C@]2(O)C(=O)CO | C2C12 myoblasts | NF-κB reporter gene, inhibitor | 24 h pretreatment, added: TNF-α 10 ng/mL, 24 h | 0.417 µM
C=CC(C)(C)c1cc2cc(-c3ccc(O)cc3O)c(=O)oc2cc1O | Hepa1c1c7 | cell growth | – | 41.3 µM
COc1cc2ncnc(Nc3ccc(Cl)cc3F)c2cc1OC | H3255 (EGFR L858R) | cell viability, Alamar Blue | 120 h | 0.09 ± 0.007 µM
COc1ccc(OC)c(/C=C2\CC/C(=C\c3ccc(O)c(OC)c3)C2=O)c1 | MGC-803 | cell growth or viability, MTT | 72 h | 13.3 µM
COc1ccc(-c2c3n(c4c(=O)[nH]nc(O)c24)CCn2cccc2-3)cc1 | PANC-1 | cell growth or viability, MTT | 48 h | 60 µM
COc1cc(C(=O)c2sc3cc(C)ccc3c2NC(C)=O)cc(OC)c1OC | L1210 | cell growth or viability | 24 h | 0.58 µM
COc1c(O)cc2oc3cc4c(c(O)c3c(=O)c2c1CC=C(C)C)C=CC(C)(C)O4 | H1L6.1c3 | cell viability, MTT | – | 47.6 ± 0.56 µM
COc1ccc2c(NC(C)=O)c(C(=O)c3cc(OC)c(OC)c(OC)c3)oc2c1 | L1210 | cell growth or viability | 24 h | 0.06 µM
CN(C)C/C=C/C(=O)Nc1cc2c(Nc3ccc(F)c(Cl)c3)ncnc2cc1O[C@H]1CCOC1 | SK-OV-3 (HER2-positive) | cell viability, MTT | 72 h | 8.37 µM
Cc1cc(Cl)n2nc3nc4ccccc4cc3c2n1 | colon cancer lines | cell survival, MTT | sensitive lines, range | 0.6 to 1 µM
Nc1cc(COc2c(Cl)cc(C[C@H](N)C(=O)O)cc2Cl)c2oc(-c3ccccc3)nc2c1 | LN-229 | cell growth or viability, ATP luminescence | 6 days | 15 µM
COc1cccc2c1C(=O)c1c(O)c3c(c(O)c1C2=O)C[C@@](O)(C(=O)CO)C[C@@H]3O[C@H]1C[C@H](N)[C@H](O)[C@H](C)O1 | HCT-15/ADM2-2 | cell growth, XTT | 72 h | 1.96 µg/mL
CCN(CC)CCCC(C)Nc1ccnc2cc(Cl)ccc12 (centres unmarked) | WRL68 | cell growth or viability, MTT | 72 h | 103 µM
C=CCc1ccc(OCc2nn(CN3CCCCC3)c(=S)o2)c(OC)c1 | SK-OV-3 | cell growth or viability, MTT | 72 h | 19.5 µM
Cc1ccc2cc(-c3ccccc3)[nH]c2c1 | HEK293 NF-κB luciferase reporter | reporter gene, refers to: NF-κB | 6 h, added: TNFα | 0.94 ± 0.4 µM
CCCCCCCCCCCCCCCCNC[C@@H]1CSC(c2ccccc2)N1 (mixture of isomers) | human Fibroblast | cell growth or viability, SRB | 48 h | 60 to 84.5 µM

For quick reference, copied from above:
SMILES | cell line | assay | setting | IC50
COc1ccc2c(NC(C)=O)c(C(=O)c3cc(OC)c(OC)c(OC)c3)oc2c1 | L1210 | cell growth or viability | 24 h | 0.06 µM
COC(=O)c1c(-c2ccc(F)cc2)c2n(c1C(=O)OC)CCn1cccc1-2 | PANC-1 | cell growth or viability, MTT | 48 h | 75.3 µM
CC(=O)OC[C@H]1O[C@@H]([S-])[C@H](OC(C)=O)[C@@H](OC(C)=O)[C@@H]1OC(C)=O.CCP(CC)CC.[Au+] | RC-124 kidney epithelial | cell proliferation, crystal violet staining | 96 h | 0.4 ± 0.3 µM
CC1(C)C2CCC(CN=C(N)CSS(=O)(=O)O)C1C2 (centres unmarked) | K562, inducible U2AF1 S34F | cell viability, trypan blue | 5 d | ~5 µM
